Published values pooled from the literature.
Numbered parts are unrelated; each lists some results of a single study.

Set 1
Target: Histone acetyltransferase KAT6A, winged helix 2, GST fusion (KAT6A, Homo sapiens, UniProt Q92794, residues 85-181)
Technique: protein binding microarray
Molecule type: double-stranded DNA, one strand shown
Medium: in vitro
Concentration: not given
Setting: 8-mer, flanks averaged, mean of 2 arrays, mostly near background
Baseline: not given
Direction: higher = stronger binding
Construct (chain): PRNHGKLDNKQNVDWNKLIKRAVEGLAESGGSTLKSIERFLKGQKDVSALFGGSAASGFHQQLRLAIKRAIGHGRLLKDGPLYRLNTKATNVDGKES
Oligonucleotide	E-score
ACGAAGAG	-0.00805
GAAGAAAC	0.125
CATTGGTA	-0.0539
CATTATCA	0.0637
ATTTGGCC	0.00258
TATCCCAA	0.0997
ACTCAAAG	-0.116
TATGCGGA	0.00868

Set 2
Target: RING finger protein unkempt homolog, zinc fingers 1-6, GST-SBP tag (UNK, Homo sapiens, UniProt Q9C0B0, residues 30-357)
Chain of UniProt Q9C0B0 (30-357, looked up): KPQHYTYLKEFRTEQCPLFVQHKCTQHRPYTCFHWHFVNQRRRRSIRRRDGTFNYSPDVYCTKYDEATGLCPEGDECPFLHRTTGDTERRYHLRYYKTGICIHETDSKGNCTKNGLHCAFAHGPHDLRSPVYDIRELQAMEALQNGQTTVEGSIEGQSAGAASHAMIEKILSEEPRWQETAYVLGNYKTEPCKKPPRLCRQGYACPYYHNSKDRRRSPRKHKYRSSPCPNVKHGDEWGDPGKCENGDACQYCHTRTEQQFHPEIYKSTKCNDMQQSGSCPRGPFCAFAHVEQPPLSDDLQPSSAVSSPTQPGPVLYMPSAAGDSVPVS
Technique: RNA Bind-n-Seq
Molecule type: RNA
Medium: in vitro
Concentration: not given
Setting: RNA with constant flanks, human and mouse sites, ends assumed
Baseline: input RNA pool
Direction: higher = stronger binding
Oligonucleotide	bound/input enrichment [ratio]
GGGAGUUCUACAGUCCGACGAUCGUUAAGAGCCCAGAGGUUCAAUUGCUUGGGCAUGUUGAAACUGAAGAUGUAGAAAUAAUUGCAACAUGUGAUACUUUUGGGAAUGAAGAUUUCAAUAAUAUUCAAGACUCUGAAAAUAACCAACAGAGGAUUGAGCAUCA	0.241
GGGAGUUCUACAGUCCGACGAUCGGGCACUGCAGCGUUGGAACGUGAGCCUCGGAUUUCCUGGCCCCUCUACUGUAAAUGUGCCUUAGCCUAAGCCUCCCAUCCUGUGUUAGCGUUGCCUGGUGCGGGGCAGGGCCUAACAAGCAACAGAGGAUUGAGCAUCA	0.185
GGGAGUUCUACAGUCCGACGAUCUUUCCACUUGAUGUCAACACGCAGAAGGGGGUGAAAGGGACGCGUGACAGAUUCAGAAAUUAGCACAUUUGUGAAUGCUCGAUGCCCUGUGAGCUUGAGAAGAGGGAUCCAGAGUGGUGACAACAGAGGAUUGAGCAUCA	1.75
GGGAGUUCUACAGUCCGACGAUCUUUCACAUUUGGUGAGUGGGGCAGCAUUUCCUUCUCCCACUGCUGCUGAGAUGGCAGAAAUUAGUCGAAUUCAGUAUGAAAUGGAAUACACCGAAGGUAUUAGUCAGCGAAUGAGGGUCCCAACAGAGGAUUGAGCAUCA	2.44
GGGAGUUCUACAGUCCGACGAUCUUCUGGUUCAGAUCUGUGCCUUUGGCUGCAACAAGUAUGUUGAUUACUCAAGGAUUAAUUAGUAAAGGAAUACUUUCAAGUCAUCCCAAAUAUGGUUCCAUCCCUAAACUUAUACUUGCUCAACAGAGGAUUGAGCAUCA	0.946
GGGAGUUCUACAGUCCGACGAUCUCCCUAAAGAUCAUCGGGAGACUUCAUUGGAUUGACAGAGAAAAGCUUCGAAGUUUCAUCUUAGCGUGUCAAGAUGAAGAGACGGGAGGAUUUGCAGACAGACCAGGAGAUAUGGUGGAUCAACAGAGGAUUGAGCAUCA	0.267

Set 3
Target: Fragile X messenger ribonucleoprotein 1, C-terminal low-complexity region (Fmr1, Mus musculus, UniProt P35922)
Technique: RNA Bind-n-Seq
Molecule type: RNA
Medium: in vitro
Concentration: 200 nM
Setting: whole 134-nt RNA, ends assumed
Together with: 150 mM KCl
Baseline: input library
Direction: higher = stronger binding
Oligonucleotide	log2 enrichment
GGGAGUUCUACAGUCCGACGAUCCAAGUCCUGUGCUACACAUCGUAUGUACCGAAUCGGUGGUUUUUGGUUUUUUUGGAAAGUAUUAUGUUACGCCGUUCGGAUCUGCACUUCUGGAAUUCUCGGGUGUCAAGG	-0.676
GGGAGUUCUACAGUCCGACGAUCUUCUGAGAAGGUUGCGCAGCAGCUGUGCCCGGCAGUCUAGAGGCGCAGAAGAGGAAGCCAUCGCCUGGCCCCGGCUCUCUGGACCUUGUCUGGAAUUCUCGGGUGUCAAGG	-0.968
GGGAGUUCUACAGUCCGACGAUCUGGGAGGUGGAUUUUGUUUAUUGUUUUAGCUCAUUUCCAGGGGUGGGAAUUUUUUUUUAAUAUGUGUCAUGAAUAAAGUUGUUUUUGAAAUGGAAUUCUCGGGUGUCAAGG	0.174
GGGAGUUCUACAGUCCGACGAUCCCUGUGCUACACAUCGUAUGUACCGAAUCGGGAAAAAAGGGGAAAAAAGGAAAAAAGGGGAAAGUAUUAUGUUACGCCGUUCGGAUCUGCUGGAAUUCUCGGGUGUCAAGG	-0.41
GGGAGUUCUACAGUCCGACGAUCCACAGACAACACGCACCCACACAGACACAGAGGGAAGGGGUAAAGAUGGGGACAGGGUGCACAGCAGGGCGGGGUAGGACCCCAGCCCCUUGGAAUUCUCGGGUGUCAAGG	0.605

Single results of other studies
Substance	target	test	test system	conditions	scale	quantity	value
PhoQ, residues 284 288 289 292 302 303 ASSHFY	PhoP, residues 12 14 15 18 19 QYFSL (Escherichia coli, UniProt P23836)	Sort-seq, refers to: YFP reporter	E. coli	PhoQ-PhoP variant library, together with: 10 µM Mg2+	baseline: high Mg2+ state, higher = stronger signaling	fold induction	14

Some of these lines once more (set 3):
Oligonucleotide	log2 enrichment
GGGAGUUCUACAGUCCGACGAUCCAAGUCCUGUGCUACACAUCGUAUGUACCGAAUCGGUGGUUUUUGGUUUUUUUGGAAAGUAUUAUGUUACGCCGUUCGGAUCUGCACUUCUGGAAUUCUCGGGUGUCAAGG	-0.676
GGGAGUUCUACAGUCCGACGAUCUUCUGAGAAGGUUGCGCAGCAGCUGUGCCCGGCAGUCUAGAGGCGCAGAAGAGGAAGCCAUCGCCUGGCCCCGGCUCUCUGGACCUUGUCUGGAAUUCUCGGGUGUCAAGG	-0.968
